Assay results collected from several papers.
Organism: Staphylococcus aureus

SMILES | test | test system | conditions | MIC
COc1ccnc(NC(=S)N2CCN(c3ncc(C(F)(F)F)cc3Cl)CC2)c1 |  | MRSA USA300-FPR3757, clinical |  | 1.2 µM
CC[C@H](C)[C@H](N)C(=O)N[C@@H](CCCNC(=N)N)C(=O)N[C@H](C(=O)N[C@@H](Cc1c[nH]c2ccccc12)C(=O)N[C@@H](Cc1ccccc1)C(=O)N[C@H](C(=O)N[C@@H](CCCCN)C(=O)N[C@H](C(=O)N[C@@H](CCCNC(=N)N)C(=O)N[C@@H](CCCCN)C(=O)N[C@@H](Cc1c[nH]c2ccccc12)C(=O)N[C@@H](CCCCN)C(=O)N[C@@H](C)C(=O)N[C@H](C(=O)N[C@@H](Cc1ccc(O)cc1)C(=O)N[C@@H](Cc1c[nH]cn1)C(=O)N[C@H](C(N)=O)[C@@H](C)O)[C@@H](C)CC)C(C)C)[C@@H](C)CC)C(C)C | broth dilution | ATCC 25923, Mueller-Hinton broth | 24 h, 37 °C | 100 µM
CCCCCCCCCC(=O)N[C@@H](Cc1c[nH]c2ccccc12)C(=O)N[C@H](CC(N)=O)C(=O)N[C@@H](CC(=O)O)C(=O)N[C@@H]1C(=O)NCC(=O)N[C@@H](CCCN)C(=O)N[C@@H](CC(=O)O)C(=O)N[C@H](C)C(=O)N[C@@H](CC(=O)O)C(=O)NCC(=O)N[C@H](CO)C(=O)N[C@@H]([C@H](C)CC(=O)O)C(=O)N[C@@H](CC(=O)c2ccccc2N)C(=O)O[C@@H]1C | broth microdilution | ATCC 6538 | 24 h | 7.7 µM
CC(C)C[C@@H](NC(=O)CNC(=O)[C@@H](CCCCN)NC(=O)[C@@H](CC(C)C)NC(=O)[C@@H](CCCCN)NC(=O)[C@@H](CCCNC(=N)N)NC(=O)[C@@H](CC(C)C)NC(=O)[C@@H](CC(C)C)NC(=O)[C@@H](CCCNC(=N)N)NC(=O)[C@H](N)CCCNC(=N)N)C(=O)N[C@H](CCCCN)C(=O)N[C@H](CCCCN)C(=O)N[C@H](Cc1ccc(O)cc1)C(=O)N[C@H](CC(C)C)C(=O)N[C@H](Cc1ccc(O)cc1)C(=O)N[C@H](Cc1ccccc1)C(=O)N[C@H](CCCCN)C(=O)N[C@H](CC(C)C)C(=O)N[C@H](CCC(N)=O)C(=O)N[C@H](CC(C)C)C(=O)N[C@H](CC(C)C)C(=O)N[C@H](CCCCN)C(=O)N[C@H](CCCCN)C(N)=O |  | CCARM 3095, methicillin-resistant, Mueller-Hinton broth | 24 h | 4 µM
Nc1nc(/C(=N/O)C(=O)N[C@@H]2C(=O)N3C(C(=O)O)=C(/C=C4\CCN([C@@H]5CCNC5)C4=O)CS[C@H]23)ns1 |  | mecA−, antibiotic-susceptible |  | 0.5 µg/mL
CC(C)C[C@H](NC(=O)[C@H](CCCCN)NC(=O)[C@H](CC(C)C)NC(=O)[C@H](CCCCN)NC(=O)[C@H](CC(C)C)NC(=O)[C@H](CCCCN)NC(=O)CNC(=O)[C@H]1CCCN1C(=O)[C@H](CCCCN)NC(=O)[C@H](CC(C)C)NC(=O)[C@H](CCCCN)NC(=O)[C@H](CC(C)C)NC(=O)[C@H](CCCCN)NC(=O)[C@@H](N)CC(C)C)C(N)=O | broth microdilution | ATCC 29737, Mueller-Hinton broth | 18 h, 37 °C | 32 µM
CC[C@H](C)[C@H](NC(=O)[C@H](CC(C)C)NC(=O)[C@H](CCCNC(=N)N)NC(=O)[C@@H](N)CCCNC(=N)N)C(=O)N[C@@H](CCCNC(=N)N)C(=O)N[C@H](C(=O)N[C@@H](CC(=O)O)C(=O)N[C@H](C(=O)NCC(=O)N1CCC[C@H]1C(=O)N[C@H](C(=O)N[C@H](C(=O)N[C@@H](Cc1ccc(O)cc1)C(=O)N[C@@H](CC(=O)O)C(=O)N[C@@H](Cc1ccc(O)cc1)C(=O)N[C@@H](Cc1ccccc1)C(=O)N[C@@H](CCCCN)C(=O)N[C@@H](CC(=O)O)C(=O)N[C@@H](CCC(N)=O)C(=O)N[C@@H](CC(C)C)C(=O)N[C@@H](CC(C)C)C(=O)N[C@@H](CCCCN)C(=O)N[C@@H](CCCCN)C(N)=O)[C@@H](C)CC)[C@@H](C)CC)[C@@H](C)O)[C@@H](C)O |  | CCARM 3090, methicillin-resistant, Mueller-Hinton broth | 24 h | > 128 µM
CC[C@H](C)[C@H](NC(=O)[C@H](CC(=O)O)NC(=O)[C@@H](NC(=O)[C@H](CC(N)=O)NC(=O)[C@@H]1CCCN1C(=O)[C@@H](NC(=O)[C@@H](N)Cc1ccccc1)[C@@H](C)O)[C@@H](C)O)C(=O)N[C@H](C(=O)N[C@H](C(=O)N[C@@H](CCCNC(=N)N)C(=O)N[C@H](C(=O)N[C@H](C(=O)NCC(=O)NCC(=O)NCC(=O)NCC(=O)NCC(=O)N[C@@H](CC(C)C)C(=O)N[C@@H](CCCCN)C(=O)N[C@@H](CCCCN)C(=O)N[C@@H](CC(C)C)C(=O)N[C@@H](CC(C)C)C(=O)N[C@@H](CC(C)C)C(=O)N[C@@H](CC(C)C)C(=O)N[C@@H](CC(C)C)C(=O)N[C@@H](CCCCN)C(=O)N[C@@H](CCCCN)C(=O)N[C@@H](CC(C)C)C(=O)NCC(=O)O)[C@@H](C)O)[C@@H](C)O)[C@@H](C)O)[C@@H](C)CC |  | USA300 MRSA, Mueller-Hinton broth | 18 to 24 h, 37 °C | > 256 µg/mL
c1ccc(CCOC2CCCc3c2[nH]c2ccccc32)cc1 (stereo not drawn) | broth microdilution | SA113 |  | > 16 µg/mL
CC[C@H](C)[C@H](NC(=O)[C@H](Cc1c[nH]c2ccccc12)NC(=O)[C@@H](NC(=O)[C@H](Cc1ccc(O)cc1)NC(=O)[C@@H]1CCCN1C(=O)[C@@H](NC(=O)[C@H](C)N)[C@@H](C)CC)[C@@H](C)CC)C(=O)N[C@@H](Cc1ccc(O)cc1)C(=O)N[C@@H](CCCNC(=N)N)C(=O)N[C@@H](CC(C)C)C(=O)N[C@@H](CC(C)C)C(=O)N[C@@H](CCCNC(=N)N)C(=O)N[C@@H](CCCCN)C(=O)NCC(N)=O | broth microdilution | ATCC 6051 | 18 h, 37 °C | 1.88 µM
CC[C@H](C)[C@H](NC(=O)[C@H](CCCCN)NC(=O)[C@H](CCCCN)NC(=O)CNC(=O)[C@H](CCCCN)NC(=O)[C@H](CC(C)C)NC(=O)[C@H](CCCCN)NC(=O)[C@H](CCCNC(=N)N)NC(=O)[C@@H](NC(=O)[C@H](CC(C)C)NC(=O)[C@H](CCCNC(=N)N)NC(=O)[C@@H](N)CCCNC(=N)N)[C@@H](C)CC)C(=O)N[C@@H](Cc1ccc(O)cc1)C(=O)N[C@@H](CC(C)C)C(=O)N[C@@H](Cc1ccc(O)cc1)C(=O)N[C@@H](Cc1ccccc1)C(=O)N[C@@H](CCCCN)C(=O)N[C@@H](CC(C)C)C(=O)N[C@@H](CCC(N)=O)C(=O)N[C@@H](CC(C)C)C(=O)N[C@@H](CC(C)C)C(=O)N[C@@H](CCCCN)C(=O)N[C@@H](CCCCN)C(N)=O |  | CCARM 3090, methicillin-resistant, Mueller-Hinton broth | 24 h | 8 µM
CC[C@H](C)[C@H](N)C(=O)N[C@@H](CC(C)C)C(=O)NCC(=O)N[C@H](CCCNC(=N)N)C(=O)N[C@H](C(=O)N[C@H](C(=O)N[C@@H](CCCCN)C(=O)NCC(=O)N[C@H](C(=O)N[C@@H](CCCCN)C(=O)N[C@@H](CC(=O)O)C(=O)N[C@H](C(=O)N[C@@H](CC(C)C)C(N)=O)[C@@H](C)CC)[C@@H](C)CC)C(C)C)[C@@H](C)CC | broth microdilution | MRSA ATCC 33591, Mueller-Hinton broth | 16 h, 37 °C | 50 µM

A few entries again:
SMILES | test | test system | conditions | MIC
CC[C@H](C)[C@H](NC(=O)[C@H](CC(C)C)NC(=O)[C@H](CCCNC(=N)N)NC(=O)[C@@H](N)CCCNC(=N)N)C(=O)N[C@@H](CCCNC(=N)N)C(=O)N[C@H](C(=O)N[C@@H](CC(=O)O)C(=O)N[C@H](C(=O)NCC(=O)N1CCC[C@H]1C(=O)N[C@H](C(=O)N[C@H](C(=O)N[C@@H](Cc1ccc(O)cc1)C(=O)N[C@@H](CC(=O)O)C(=O)N[C@@H](Cc1ccc(O)cc1)C(=O)N[C@@H](Cc1ccccc1)C(=O)N[C@@H](CCCCN)C(=O)N[C@@H](CC(=O)O)C(=O)N[C@@H](CCC(N)=O)C(=O)N[C@@H](CC(C)C)C(=O)N[C@@H](CC(C)C)C(=O)N[C@@H](CCCCN)C(=O)N[C@@H](CCCCN)C(N)=O)[C@@H](C)CC)[C@@H](C)CC)[C@@H](C)O)[C@@H](C)O |  | CCARM 3090, methicillin-resistant, Mueller-Hinton broth | 24 h | > 128 µM
